Results gathered from unrelated publications.
Parts stem from different laboratories: compare values within a part only.

Series 1 — technique: universal PBM; form: double-stranded DNA, one strand shown; medium: in vitro; concentration: not given; direction: higher = stronger binding
Target: Sal-like protein 4, full length isoform B (SALL4, Homo sapiens, UniProt Q9UJQ4-2, residues 1-616)
Notes: 8-mer, flanks averaged, mean of replicates
Construct (chain): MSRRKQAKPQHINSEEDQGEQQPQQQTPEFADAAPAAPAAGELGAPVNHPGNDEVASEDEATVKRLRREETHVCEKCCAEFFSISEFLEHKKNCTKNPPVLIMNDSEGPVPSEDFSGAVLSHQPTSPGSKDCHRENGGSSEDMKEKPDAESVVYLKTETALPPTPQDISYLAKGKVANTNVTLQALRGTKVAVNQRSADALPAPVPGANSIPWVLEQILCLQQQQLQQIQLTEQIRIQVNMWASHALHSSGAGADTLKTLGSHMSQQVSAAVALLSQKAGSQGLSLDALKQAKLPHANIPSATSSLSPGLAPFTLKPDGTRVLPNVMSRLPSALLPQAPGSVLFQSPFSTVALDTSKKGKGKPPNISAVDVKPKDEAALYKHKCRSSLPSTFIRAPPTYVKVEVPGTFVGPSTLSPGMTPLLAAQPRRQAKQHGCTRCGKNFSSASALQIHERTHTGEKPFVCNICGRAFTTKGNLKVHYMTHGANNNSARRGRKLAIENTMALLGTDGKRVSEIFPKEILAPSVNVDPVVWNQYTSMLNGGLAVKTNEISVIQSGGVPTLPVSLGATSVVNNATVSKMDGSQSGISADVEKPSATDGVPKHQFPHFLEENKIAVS
| Strand | E-score |
| --- | --- |
| ATGGTGCA | 0.119 |
| GGACGTCC | -0.134 |
| GGATAGAC | 0.015 |
| GTTGAAGA | 0.184 |
| CATCCAGC | 0.0272 |
| AAGGCCTG | -0.126 |
| GCATCGAC | -0.199 |
| GTCATTTA | 0.195 |
| AGGCTTGA | -0.0391 |
| TAAAATAA | 0.319 |
| ATCCCCCC | -0.362 |
| CGAGACAA | -0.139 |
| AAATGTTC | 0.218 |
| ACGAGGCT | 0.0526 |
| ATCCTGCG | -0.187 |
| ATGGTCAC | -0.0108 |
| AACCACGT | 0.0406 |
| AACCGCGT | -0.0447 |

Series 2 — technique: RNA Bind-n-Seq; form: RNA; medium: in vitro; concentration: 365 nM; reference: no-protein control; direction: higher = stronger binding
Target: RNA binding protein fox-1 homolog 2, RRM domain, GST-SBP tag (RBFOX2, Homo sapiens, UniProt O43251-10, residues 100-194)
Notes: natural RNA segment, single round, ends assumed
Shared flanks, not repeated: GGGAGUUCUACAGUCCGACGAUC … UGGAAUUCUCGGGUGCCAA
Construct (chain): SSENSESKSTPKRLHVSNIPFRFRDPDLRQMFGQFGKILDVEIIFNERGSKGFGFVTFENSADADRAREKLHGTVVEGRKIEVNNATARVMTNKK
| Strand | RBNS enrichment (R) |
| --- | --- |
| UCAUGUAUUUAUAUGUUGUACACAGUACUGGCUGAUUCUGUAAAUGGAUGUAUUGUACAGAGAACAUGAACGUCUCUUCCUAAUUUUACAUCUUCAGCAUCAUUGCAUUA | 1.16 |
| UGUCUGCACUGAGAAACCUCCCCGGGUGAUGUCUGCAAAGUCUGUGCUGUCCGUGCCCCAGGCUGGGAGAGCUAUCUGGGGAGGGGGAGAGGAGGCCGAGCAGAAUACAC | 0.358 |
| GACAGACAAGUAACCCCCUCAUGGGGGAUGGGGACCUACCUGGCUCCUCAGCCAGCACCCAGCUUAACCCCUGCCAUCCCAUGCUGGGCCCUCCAGGCCAAGAGUCUCAG | 0.236 |
| UUUAAAAUGCCUAACUUCUUAGGUACACAAACCCAUGGCUUUGUGUACUAGAACCAGAGCAAUCCACUGAUUCAUAUUGGAUCCCAAGUAUACCUCCUGCUGGUAUCAGG | 0.225 |
| UAGUAAGUCCAUGCCUUCAAUAGGAUUAGAGCCAACUUCAGGAUUCUGGAAUGUUAGGAAGAGCAGCUGAGACUUCUAUCCUGAUAGAAUAAAACAACUGCCUGAUUCUA | 0.43 |
| AAUGACACUCAGGUUCACUGUGGAAAACUGUUCUUGGGACUGUCUCAACUGUGCAAAAAACAAAAGAUGGAGUGUUUACAAGUAGACAUUCGUCAUCAGUUGUUCUUGAA | 0.185 |
| CAGGGACAGACCUGCUGCCAAGUGAGCCUGAUGGGCCACAGGUGUGCUCUUCUAAAUGGCCUGUGAGCCAGGCUGUGGGAACUCUAGCUGCUGUCAGCCCCUCCUGUAGG | 0.484 |
| AUUCAAGAGCUAGGAGGCCAGAGAGAAGACCUUCAGAAAACGGUAAGUUAAAGAAGACAAGUGUCAUCAGACACUUGGGACCCGGGCUCUCUUUAAAGUCUAGUCCCGGC | 0.327 |

Series 3 — technique: aptamer microarray, sandwich; form: DNA with 2'F-ANA; medium: in vitro; concentration: 200 nM; with: Cy3 exosite-II aptamer, 400 nM; direction: higher = stronger binding; strand: GGTTGGTGTGGTTGG
Target: Prothrombin, mature alpha-thrombin (F2, Homo sapiens, UniProt P00734)
Notes: whole 15-mer aptamer, many near background
| Modification | mean fluorescence intensity [a.u.] |
| --- | --- |
| 2'F-ANA at 1 2 3 4 7 8 10 12 13 15 | 66.3 |
| 2'F-ANA at 8 9 11 12 15 | 724 |
| 2'F-ANA at 2 3 5 6 8 10 15 | 76.7 |
| 2'F-ANA at 1 2 9 14 15 | 61.1 |
| 2'F-ANA at 1 2 4 5 7 8 9 10 14 | 71.7 |
| 2'F-ANA at 4 6 7 9 12 14 | 93.6 |
| 2'F-ANA at 3 6 8 9 14 | 545 |
| 2'F-ANA at 1 2 5 6 9 10 15 | 60.6 |
| 2'F-ANA at 3 5 10 15 | 62.6 |
| 2'F-ANA at 1 2 3 4 6 7 8 9 11 12 14 15 | 71 |
| 2'F-ANA at 3 4 5 7 8 9 10 12 13 | 55.1 |
| 2'F-ANA at 2 4 5 8 9 10 12 14 15 | 41.8 |
| 2'F-ANA at 1 3 5 6 9 11 13 14 | 47.1 |
| 2'F-ANA at 2 3 5 7 9 10 11 12 13 15 | 64.2 |
| 2'F-ANA at 1 10 13 | 65 |
| 2'F-ANA at 5 6 7 8 9 10 11 12 14 | 45.9 |
| 2'F-ANA at 1 3 5 6 7 8 11 12 | 108 |
| 2'F-ANA at 1 3 8 9 10 11 14 | 65.2 |
| 2'F-ANA at 1 4 5 6 8 9 10 11 13 14 | 58.9 |
| 2'F-ANA at 2 5 7 9 10 14 15 | 47 |

Series 4 — technique: RNA Bind-n-Seq; form: RNA; medium: in vitro; concentration: 200 nM; notes: whole 134-nt RNA, ends assumed; with: 150 mM LiCl; reference: input library; direction: higher = stronger binding; all molecules: 7-deaza-guanosine replaces G
Target: Ras GTPase-activating protein-binding protein 1, full length (G3BP1, Homo sapiens, UniProt Q13283)
Sequence of UniProt Q13283 (whole entry, looked up): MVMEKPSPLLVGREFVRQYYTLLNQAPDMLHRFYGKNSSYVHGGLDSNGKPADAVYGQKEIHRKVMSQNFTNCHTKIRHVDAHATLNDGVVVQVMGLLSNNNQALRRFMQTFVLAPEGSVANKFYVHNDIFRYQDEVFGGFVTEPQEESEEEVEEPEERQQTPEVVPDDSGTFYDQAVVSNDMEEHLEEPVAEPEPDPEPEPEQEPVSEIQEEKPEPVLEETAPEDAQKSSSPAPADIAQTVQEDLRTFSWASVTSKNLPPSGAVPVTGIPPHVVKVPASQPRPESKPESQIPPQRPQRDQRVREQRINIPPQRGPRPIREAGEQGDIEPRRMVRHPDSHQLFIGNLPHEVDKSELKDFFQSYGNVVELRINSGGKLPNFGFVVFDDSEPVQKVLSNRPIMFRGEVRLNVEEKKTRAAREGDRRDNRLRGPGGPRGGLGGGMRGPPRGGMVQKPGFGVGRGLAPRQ
Shared flanks, not repeated: GGGAGUUCUACAGUCCGACGAUC … UGGAAUUCUCGGGUGUCAAGG
| Strand | log2 enrichment |
| --- | --- |
| AGUCCUGUGCUACACAUCGUAUGUACCGAAUCGGUUUUUUUGGUUUUUGGAAAAAGGAAAGUAUUAUGUUACGCCGUUCGGAUCUGCACU | -1.7 |
| AAGUCCUGUGCUACACAUCGUAUGUACCGAAUCGGGAAAGGGUUUGGGUUUUUGGGAAAGUAUUAUGUUACGCCGUUCGGAUCUGCACUU | -0.983 |
| CUCAAGUCCUGUGCUACACAUCGUAUGUACCGAAUCGGUUUGGAGGUUUUUGGAAAGUAUUAUGUUACGCCGUUCGGAUCUGCACUUCCA | 0.277 |
| UCAAGUCCUGUGCUACACAUCGUAUGUACCGAAUCGGUGGUUUGGAAAAAAAGGAAAGUAUUAUGUUACGCCGUUCGGAUCUGCACUUCC | -0.35 |
| CAAGUCCUGUGCUACACAUCGUAUGUACCGAAUCGGGCCCGGGGCCCGGGGCCCGGAAAGUAUUAUGUUACGCCGUUCGGAUCUGCACUU | -1.34 |
| CAGCAGUGAGUCUCUUCAGAAAACCCUUUUCUACAGUUAGGGUUGAGUUACUUCCUAUCAAGCCAGUACGUGCUAACAGGCUCAAUAUUC | -0.633 |
| CACAGACAACACGCACCCACACAGACACAGAGGGAAGGGGUUGGGAGGGGGACAGGGUGCACAGCAGGGCGGGGUAGGACCCCAGCCCCU | 0.621 |
| UGAAGACUAUGAGACUGCUCUAUCAGGAAAGGAAGCCCUUUCGGCUGCGCUGCGCUCACAAAACCUCACCAAGAGUACAGAGAACCACAG | -0.0979 |

A few entries again (series 1):
| Strand | E-score |
| --- | --- |
| ATCCCCCC | -0.362 |
| CGAGACAA | -0.139 |
| AAATGTTC | 0.218 |
| ACGAGGCT | 0.0526 |
| ATCCTGCG | -0.187 |
| ATGGTCAC | -0.0108 |
| AACCACGT | 0.0406 |
